Measured values pooled from the literature.
Every numbered part comes from another study and shows a few of its results, in no order.

Series 1 — technique: RNA Bind-n-Seq; form: RNA; matrix: in vitro; tested at: 365 nM; reference: no-protein control; reading: higher = stronger binding
Target: RNA binding protein fox-1 homolog 2, RRM domain, GST-SBP tag (RBFOX2, Homo sapiens, UniProt O43251-10, residues 100-194)
Setting: natural RNA segment, single round, ends assumed
Construct (chain): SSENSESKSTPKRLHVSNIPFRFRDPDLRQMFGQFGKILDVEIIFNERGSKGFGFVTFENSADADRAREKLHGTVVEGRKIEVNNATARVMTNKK
Oligonucleotide | RBNS enrichment (R)
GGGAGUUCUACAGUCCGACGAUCAAAGAUGCCCUAUCCAUGAGAUGCCUUUUCAUCUGCAAACUCUGCAAAAUGUGUCUCAUGUUUCGCAACUCUUUUUUUCCCCCUCGCUCCCGCCUACCCCGUCGGCAUUUUGGAAUUCUCGGGUGCCAA | 0.356
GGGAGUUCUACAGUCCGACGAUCCAACAUGAUAAUUUAUGUAACUGAUAGCUUCUGUCCUUAUUAGUACACUUAACAUUUGAGACUAGUAUUUAUUGAUCCAGGCAAAGUAAUUAAUUAAUCAUGCUUGGGCUUGGAAUUCUCGGGUGCCAA | 0.451
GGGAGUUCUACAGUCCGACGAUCGAGGUACAUUAGAGCAUGGAGGACACCUCCACAUCUUUUGAAAUCCAGGCAAGGAGACCAAAACUUUCGCUCUGUUCACUUGUGCCUCACUUUGGAAGCUUAACUUCCCAUGGAAUUCUCGGGUGCCAA | 0.206
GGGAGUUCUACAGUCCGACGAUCCAGGGGCAGAAAACAUCUCCUUCAACCCGUCCCCACUCCUUCCUCUGCAUGACCUUGGGCAAACCCUUGCCCUUUCAAGCCAUCAGCUCCUGCCUCUCUGCCAUGAGGGCUGGAAUUCUCGGGUGCCAA | 2.23
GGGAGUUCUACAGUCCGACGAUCUGGUAAAGAAGAUAAAUAGGUGAAUUUUAUUGCCUGUGUUUUCAGGCUUCAGAGGUACCUGGCACCUUACUCAAGCAAAAACAAAAAACAGCUUUACUUCAAAAGCAUGUUGGAAUUCUCGGGUGCCAA | 0.672
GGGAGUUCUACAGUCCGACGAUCUUUAGAAUCUUGUAUUUAAGUUUUGAUUUUCAAAUGUUCUGCUUCAUGUGUCUGUGAAGAAUUGUACUUUAAGUGUGUGUCCUCUGAGGUGCUUGAGAAAGUGUACACUGUGGAAUUCUCGGGUGCCAA | 1.4
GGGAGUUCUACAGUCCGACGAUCUAAAACAAACAAACAAACAAACAGUUUUCAGAAGUUCUUAAGGCAAGAGUGAAUUUCUGUGGAUUUUACUGGUCCCAGCUUUAGGUUCUUUACGACACUAACAGGACUGCUGGAAUUCUCGGGUGCCAA | 0.56
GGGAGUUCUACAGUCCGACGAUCGAAGUUAAAAAAUAAUGUCUGAUCCUGUUCCUAAGUUCCAAACUAUAGCCAACACUCUGAUGCUGCUCUUUUUCUUGUAGGACCAACCGUCCCAGUUUGCCUGGGACUUUUGGAAUUCUCGGGUGCCAA | 0.283

Series 2 — technique: universal PBM; form: double-stranded DNA, one strand shown; matrix: in vitro; tested at: 600 nM; reading: higher = stronger binding
Target: Sal-like protein 4, full length isoform A (SALL4, Homo sapiens, UniProt Q9UJQ4, residues 1-1053)
Sequence of UniProt Q9UJQ4 (whole entry, looked up): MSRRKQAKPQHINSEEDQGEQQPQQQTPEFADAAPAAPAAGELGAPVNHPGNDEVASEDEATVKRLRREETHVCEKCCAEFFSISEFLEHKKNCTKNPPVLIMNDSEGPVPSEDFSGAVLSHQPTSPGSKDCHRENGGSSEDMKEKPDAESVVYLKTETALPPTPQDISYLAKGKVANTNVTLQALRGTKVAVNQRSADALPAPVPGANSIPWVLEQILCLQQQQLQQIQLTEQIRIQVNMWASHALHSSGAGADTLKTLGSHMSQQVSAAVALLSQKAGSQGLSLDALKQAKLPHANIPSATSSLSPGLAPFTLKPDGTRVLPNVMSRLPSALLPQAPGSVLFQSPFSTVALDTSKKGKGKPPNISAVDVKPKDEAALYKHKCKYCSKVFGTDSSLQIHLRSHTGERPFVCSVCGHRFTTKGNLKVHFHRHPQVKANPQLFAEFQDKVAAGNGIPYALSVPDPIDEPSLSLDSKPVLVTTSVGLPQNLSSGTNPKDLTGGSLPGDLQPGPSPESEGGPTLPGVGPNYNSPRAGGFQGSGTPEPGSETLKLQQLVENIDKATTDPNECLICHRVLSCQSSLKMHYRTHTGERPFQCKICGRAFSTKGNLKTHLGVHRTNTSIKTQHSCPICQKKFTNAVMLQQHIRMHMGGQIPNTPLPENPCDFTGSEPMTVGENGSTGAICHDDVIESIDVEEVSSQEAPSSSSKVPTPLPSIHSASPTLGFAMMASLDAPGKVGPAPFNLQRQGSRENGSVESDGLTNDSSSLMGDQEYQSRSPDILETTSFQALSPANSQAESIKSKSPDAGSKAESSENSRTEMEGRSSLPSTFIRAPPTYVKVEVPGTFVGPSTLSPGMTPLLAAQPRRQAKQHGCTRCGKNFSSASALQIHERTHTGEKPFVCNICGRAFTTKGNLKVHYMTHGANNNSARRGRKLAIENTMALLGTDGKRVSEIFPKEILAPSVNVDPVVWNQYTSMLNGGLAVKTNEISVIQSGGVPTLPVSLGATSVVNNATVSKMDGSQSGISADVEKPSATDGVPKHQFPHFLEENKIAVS
Setting: 8-mer, flanks averaged, mean of replicates
Oligonucleotide | E-score
AATACCGA | 0.151
ACGGCAGA | -0.135
AGCCCAGG | -0.351
ACAGTCGG | -0.142
AAGACAAC | 0.124
ATCTGAGA | 0.0239
CCGGGAGG | -0.338
ACGCGTCA | 0.0293
AGTTGGAT | 0.146
TCGAGCGA | -0.203
ACTCTCCA | 0.117
ATTTGTCC | 0.202
GTTGCAGA | -0.0672
AACTTTAG | 0.159
CGATGCTC | -0.259
AGCCACCA | -0.066
CTATCAAA | 0.131
GCCATCTA | -0.028
GCACCGGA | -0.282

Series 3 — technique: RNA Bind-n-Seq; form: RNA; matrix: in vitro; tested at: not given; reference: input RNA pool; reading: higher = stronger binding
Target: RING finger protein unkempt homolog, zinc fingers 1-6, GST-SBP tag (UNK, Homo sapiens, UniProt Q9C0B0, residues 30-357)
Sequence of UniProt Q9C0B0 (30-357, looked up): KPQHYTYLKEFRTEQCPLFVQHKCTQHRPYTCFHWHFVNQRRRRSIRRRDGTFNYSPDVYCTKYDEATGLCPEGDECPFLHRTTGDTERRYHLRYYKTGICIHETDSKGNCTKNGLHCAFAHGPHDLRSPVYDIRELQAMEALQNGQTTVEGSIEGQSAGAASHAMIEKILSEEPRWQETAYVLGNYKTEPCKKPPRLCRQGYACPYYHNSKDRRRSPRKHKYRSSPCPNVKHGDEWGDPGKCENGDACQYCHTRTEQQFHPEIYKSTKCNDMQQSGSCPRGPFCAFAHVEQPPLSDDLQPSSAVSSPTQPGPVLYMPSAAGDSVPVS
Setting: RNA with constant flanks, human and mouse sites, ends assumed
Oligonucleotide | bound/input enrichment [ratio]
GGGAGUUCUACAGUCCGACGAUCUGAACACAAUUCAUAAAGAUUUCUCUUUUAUACCUUCCUCACUGGCCCCCUCCACCUGCCCAUAGUCACCAAAUUCUGUUUUAAAUCAAUGACCUAAGAUCAACAAUGAAGUAUUUUAUACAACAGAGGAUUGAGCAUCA | 3.33
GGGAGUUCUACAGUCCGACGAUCUUGUGGUGCCAGAGAAAAGUAGCCAGAGCGGCGCAGUGGCGGCCGCGUUCUGUGGUUUUCCGCUAUUCCCCCAGACCCGCACCUUCUCGGCCUCUUUGCGGAGAAUCGUGACCAAGAUGUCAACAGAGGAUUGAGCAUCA | 0.235
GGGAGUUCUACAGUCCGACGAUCGAUUGCUGGCGAGGAGGAGGAGUUCAUGUAGUGUUUGAGUGAAGCUUGAGUCACCAUGAGUAGUAGUUUAGGAAAAGAAAAAGACUCUAAAGAGAAAGACCCCAAAGUACCGUCUGCCAACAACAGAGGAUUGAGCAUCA | 2.17
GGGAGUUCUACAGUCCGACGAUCACACACACCCUAGAAUGCUCGCUUUGCAGCACAGGCAGGAGCAGCAGCAAGCAGCAGGUGUUUAGAUCCUUGGUUUUGAGAAAUUCCCCCCUAAGUAUGUGGCAAUAAGUAUAAGCCACUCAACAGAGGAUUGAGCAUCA | 0.292
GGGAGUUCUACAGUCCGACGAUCAUUUAUCUGUAUGAAAUUCCAGCAGUUAAUUUGAACGUUUAUGUAUAGGAUGUUUGUAUUCUUAGGUCUUUACUACAGUGUUUCUACCUCUCAUUUGUAACUGCAUUAUCUUCAAAAUAGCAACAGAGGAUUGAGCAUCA | 7.69
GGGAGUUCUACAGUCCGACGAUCCUUACACCAAGCAUAGGAGCCAAGGAGAAGGAGCAACAUGUAGCUUUAGUCACCUCUACAUUACCACCGUUACCUUUGCCUCCCAUGCUGCCUGAAGAUAAAGAAGCUGAUAGCUUACGACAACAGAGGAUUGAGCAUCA | 0.171
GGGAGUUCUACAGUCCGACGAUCGUUUUAAUAAAGGCUCUUGAAAUUACAAAAGCAAGUCACGUGAGCCCCCACCCAGGAGAUAGCUGGAUUCCUUUACUCAUUAAUGCCGUUGACCAUUGCAUGAACAGAAUUAAGGCGCUCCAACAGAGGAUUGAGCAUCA | 0.784
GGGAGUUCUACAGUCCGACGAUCUGUGUGUGUGUGUGUGUGUGUGUGUGUGUGUGUGUGUGUGUGUGUGUAUGUGUGUGUGUGUGUAUGCAAGUUAUUCCUUCUUGUCAUUUCACACCAAGGAGAAGAUAUUACAUACUUUUUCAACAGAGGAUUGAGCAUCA | 1.32

Series 4 — technique: protein binding microarray; form: double-stranded DNA, one strand shown; matrix: in vitro; tested at: not given; reference: not given; reading: higher = stronger binding
Target: Histone acetyltransferase KAT6A, both winged helices, GST fusion (KAT6A, Homo sapiens, UniProt Q92794, residues 1-181)
Setting: 8-mer, flanks averaged, mean of 2 arrays, mostly near background
Target sequence (chain): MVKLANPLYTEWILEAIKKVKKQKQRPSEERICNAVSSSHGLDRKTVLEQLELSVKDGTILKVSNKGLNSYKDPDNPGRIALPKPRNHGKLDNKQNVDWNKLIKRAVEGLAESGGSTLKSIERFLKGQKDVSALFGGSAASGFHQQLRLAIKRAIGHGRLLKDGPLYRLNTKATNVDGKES
Oligonucleotide | E-score
TCGTCACA | -0.0118
GGAGGGAA | -0.112
GAGTGGTA | -0.116
ATGAGGAG | -0.0381
CAGCAGAC | -0.0781
CCCACATC | -0.261
CGAGAGGC | -0.0225
AAGATCTG | -0.0586
ATCACAGA | -0.139
CCGTCTTA | 0.0967
ACCTGTTC | -0.174
AGTAGCAC | -0.107
GTACTTTA | -0.126
TCATGCCA | -0.15
GACTTCCC | -0.065
AGCGGCAC | 0.249
ATGGAGGA | -0.114
AATAGTCC | -0.0605
CACCGTAG | 0.146
CTAATTCA | 0.0365

Repeated from above (series 4):
Oligonucleotide | E-score
TCGTCACA | -0.0118
GGAGGGAA | -0.112
GAGTGGTA | -0.116
ATGAGGAG | -0.0381
CAGCAGAC | -0.0781
CCCACATC | -0.261
CGAGAGGC | -0.0225
AAGATCTG | -0.0586
